Measured values from different studies.

Cc1cc(Oc2nc(N3CC[C@@H](c4ccncc4)C3)ncc2F)[nH]n1
IC50 (Mycobacterium tuberculosis; THP-1, H37Rv non-replicating; day 4 + 1): 0.66 µM

COc1ccc(CCNc2cc(-c3ccccc3)nc3ncnn23)cc1
MIC (Streptococcus pyogenes; microbial growth, broth dilution; 1308007P): 16 µM

CN1CC(=O)N=C1N.C[C@H](CCC(=O)O)[C@H]1CC[C@H]2[C@@H]3CC[C@@H]4C[C@H](O)CC[C@]4(C)[C@H]3C[C@H](O)[C@]12C
inhibition zone (Salmonella enterica Typhimurium; TISTR 1470; 1 mg per disc, 18 to 24 h, 37 °C, 6 mm disc): inactive

CCn1c2ccccc2c2cc(/C=N/NC(=O)Cn3ccc(=O)c4ccccc43)ccc21
inhibition (Fusarium graminearum; microbial growth; 50 µg/mL): 26.2%

CC(CCC(=O)[O-])C1CCC2C3C(O)CC4CC(O)CCC4(C)C3CCC12C.C[N+](C)(C)CC(O)CC(=O)O (stereo not shown)
inhibition zone (Salmonella enterica Typhimurium; TISTR 1470; 1 mg per disc, 18 to 24 h, 37 °C, 6 mm disc): inactive

CC[C@H](C)[C@H](NC(=O)[C@H](CC(C)C)NC(=O)CNC(=O)[C@H](CCCCN)NC(=O)[C@@H](NC(=O)[C@@H](NC(=O)[C@H](CC(N)=O)NC(=O)[C@H](Cc1c[nH]c2ccccc12)NC(=O)[C@@H](NC(=O)[C@H](CCC(=O)O)NC(=O)CNC(=O)[C@H](Cc1c[nH]c2ccccc12)NC(=O)[C@@H](N)CC(C)C)[C@@H](C)CC)[C@@H](C)O)C(C)C)C(N)=O
IC50 (Herpes simplex virus 1; virus inactivation, plaque reduction; Vero, F; 37 °C): 2.48 µg/mL

Cc1cccc(-c2nc(Nc3ccncn3)c3c(C)csc3n2)n1
MIC (Streptococcus pyogenes; microbial growth, broth dilution; 1308007P): 16 µM

CN[C@@H]1[C@H](O)[C@H](NC)[C@H]2O[C@]3(O)[C@H](O[C@@H]2[C@H]1O)O[C@H](C)C[C@H]3NC(=O)Cc1ccc(O)cn1
MIC (Mycobacteroides abscessus; microbial growth; ATCC19977; 5 days): 64 µg/mL

COc1ccc(Br)cc1/C=N/NC(=O)Cn1ccc(=O)c2ccccc21
inhibition (Fusarium graminearum; microbial growth; 50 µg/mL): 21.4%

Cc1cn(C2CC(N(C)C)C(CO)O2)c(=O)[nH]c1=O (stereo not shown)
EC50 (influenza B virus; viral cytopathic effect; MDCK): > 0.37 µM

CC[C@H](C)[C@H](NC(=O)[C@H](CCCCN)NC(=O)[C@H](CCCCN)NC(=O)[C@H](C)NC(=O)[C@@H](NC(=O)[C@H](C)NC(=O)[C@H](CC(C)C)NC(=O)[C@H](CC(C)C)NC(=O)[C@H](C)NC(=O)[C@H](CCCCN)NC(=O)[C@H](CC(C)C)NC(=O)[C@H](CC(N)=O)NC(=O)[C@@H](N)CC(C)C)C(C)C)C(=O)N[C@@H](CC(C)C)C(N)=O
maximum MBIC (Staphylococcus aureus and Pseudomonas aeruginosa; biofilm formation): 32 µM

O=[N+]([O-])NC1=NCCN1Cc1ccc(Cl)nc1
resistance ratio (Trialeurodes vaporariorum; leaf-dip assay, adults; 72 h; reference: LC50 resistant over susceptible strain): 7

CCc1ccc([C@@H]2C[C@H](C(F)(F)F)n3ncc(C(=O)NCc4ccc(OC)cc4)c3N2)cc1
MIC (Streptococcus pyogenes; microbial growth, broth dilution; 1308007P): 64 µM

COC(=O)C1NC(=O)C2NC(=O)C(NC(=O)C3NC(=O)C4NC(=O)C(NC(=O)C(Nc5c(NCCCCCCO)c(=O)c5=O)c5ccc(O)c(c5)Oc5cc4cc(O)c5C)C(O)c4ccc(cc4)Oc4cc3cc(c4O)Oc3ccc(cc3)C2O)c2ccc(O)c(c2)-c2c(O)cc(O)cc21 (stereo not shown)
EC50 (influenza virus; viral replication): 1 µM

CON(C(=O)c1cn(C)nc1C(F)F)C(C)Cc1c(Cl)cc(Cl)cc1Cl (stereo not shown)
inhibition (Fusarium graminearum; microbial growth; 1.56 µg/mL): 98.3%

O=C(NC12CC3CC(CC(C3)C1)C2)c1cc2cc(Cl)ccc2[nH]1
MIC (Streptococcus pyogenes; microbial growth, broth dilution; 1308007P): > 64 µM

CC(=O)[O-].O.[Cu+2].[O-]c1ccc(Br)cc1C=NCCN1CCOCC1
inhibition zone diameter (Salmonella enterica; serovar Typhi; 20 µL of 100 µM per disc): 16 mm

COC(=O)[C@]1(C)CCC[C@]2(C)[C@H]3C[C@H]4C(C(C)C)=C[C@]3(CC[C@H]21)[C@H]1[C@@H]4[C@@H](OCC#CCN2CCCC2)CC[C@@H]1O
relative antiviral activity (influenza A virus A/Puerto Rico/8/34 (H1N1); MDCK; concentration not given; reference: compound over oseltamivir): 25

COC(=O)C1NC(=O)C2NC(=O)C(NC(=O)C3NC(=O)C4NC(=O)C(NC(=O)C(Nc5c(Nc6cccc7ccccc67)c(=O)c5=O)c5ccc(O)c(c5)Oc5cc4cc(O)c5C)C(O)c4ccc(cc4)Oc4cc3cc(c4O)Oc3ccc(cc3)C2O)c2ccc(O)c(c2)-c2c(O)cc(O)cc21 (stereo not shown)
EC50 (influenza virus; viral replication): 1.4 µM

Cc1ccc2nc(C)c(C(=O)NCc3cccs3)n2c1
MIC (Streptococcus pyogenes; microbial growth, broth dilution; 1308007P): > 64 µM

COc1cc(O)cc(O)c1C(=O)/C=C/c1ccccc1
IC50 (VSV-pseudotyped HIV-1; viral replication; MT-2; 48 h): 71.5 µM

CN1CC(=O)N=C1N.C[C@H](CCC(=O)O)[C@H]1CC[C@H]2[C@@H]3[C@H](O)C[C@@H]4C[C@H](O)CC[C@]4(C)[C@H]3CC[C@]12C
inhibition zone (Salmonella enterica Typhimurium; TISTR 1470; 1 mg per disc, 18 to 24 h, 37 °C, 6 mm disc): inactive

O=C1/C(=N\NC(=S)NN=Cc2cccs2)c2ccccc2N1Cc1ccccc1
EC50 (influenza B virus; viral cytopathogenicity, visual CPE score; MDCK): > 4 µM

CC(CCC(=O)[O-])C1CCC2C3CCC4CC(O)CCC4(C)C3CCC12C.C[N+](C)(C)CC(O)CC(=O)O (stereo not shown)
inhibition zone (Salmonella enterica Typhimurium; TISTR 1470; 1 mg per disc, 18 to 24 h, 37 °C, 6 mm disc): inactive

COc1cc(O)c2c(=O)c(O)c(-c3ccc(OC)c(O)c3)oc2c1
MIC (Gram-positive and Gram-negative bacteria): > 100 µg/mL

Repeated from above:
COc1ccc(Br)cc1/C=N/NC(=O)Cn1ccc(=O)c2ccccc21
inhibition (Fusarium graminearum; microbial growth; 50 µg/mL): 21.4%

Cc1cn(C2CC(N(C)C)C(CO)O2)c(=O)[nH]c1=O (stereo not shown)
EC50 (influenza B virus; viral cytopathic effect; MDCK): > 0.37 µM

CC[C@H](C)[C@H](NC(=O)[C@H](CCCCN)NC(=O)[C@H](CCCCN)NC(=O)[C@H](C)NC(=O)[C@@H](NC(=O)[C@H](C)NC(=O)[C@H](CC(C)C)NC(=O)[C@H](CC(C)C)NC(=O)[C@H](C)NC(=O)[C@H](CCCCN)NC(=O)[C@H](CC(C)C)NC(=O)[C@H](CC(N)=O)NC(=O)[C@@H](N)CC(C)C)C(C)C)C(=O)N[C@@H](CC(C)C)C(N)=O
maximum MBIC (Staphylococcus aureus and Pseudomonas aeruginosa; biofilm formation): 32 µM

O=[N+]([O-])NC1=NCCN1Cc1ccc(Cl)nc1
resistance ratio (Trialeurodes vaporariorum; leaf-dip assay, adults; 72 h; reference: LC50 resistant over susceptible strain): 7
